Assay results of several laboratories.
Lines come from different studies, so protocols differ. ± gives the spread as reported.

With `COc1ccc(-n2c(SCCN3CCOCC3)nnc2[C@H](Cc2ccccc2)NC(=O)Cc2c(C)[nH]c3ccccc23)cc1` the EC50 was 4.98 ± 2.08 µM (HIV-2; HIV-2-induced cytopathicity, MTT; MT-4, wild type).
`CCOC(=O)[C@@H](C)NP(=O)(CO[C@H](CF)Cn1cnc(N)nc1=O)N[C@H](C)C(=O)OCC` gave an EC50 of over 100 µM (herpes simplex virus 2; cytopathic effect; HEL, G, TK+).
`COc1ccc(-n2c(SCc3ccncc3)nnc2[C@H](Cc2ccccc2)NC(=O)Cc2c(C)[nH]c3ccccc23)cc1` has an EC50 of 4.27 ± 1.67 µM (HIV-2; HIV-2-induced cytopathicity, MTT; MT-4, wild type).
For `CCCCCCC[C@@H](CC(=O)O)OC(=O)C[C@@H](CCCCCCC)O[C@@H]1O[C@@H](C)[C@H](O)[C@@H](O)[C@H]1O`, the EC50 was 87.5 ± 14.5 µM (Aliivibrio fischeri; bioluminescence reduction, Microtox; 5 min).
For `CC1(CCCCCCCCCCCCCCOCCCOP(=O)(O)CO[C@H](CO)Cn2ccc(N)nc2=O)COC1`, the EC50 was 0.03 ± 0.01 µM (human gammaherpesvirus 8; qPCR; BCBL-1; 7 days).
The EC50 of `CO[C@H]1C[C@@H](C)C/C(C)=C/[C@@H](CC=CC(=O)NC(C)(C)C)C(=O)C[C@H](O)[C@@H](C)[C@@H](/C(C)=C/[C@@H]2CC[C@@H](O)[C@H](OC)C2)OC(=O)[C@@H]2CCCCN2C(=O)C(=O)[C@]2(O)O[C@H]1[C@@H](OC)C[C@H]2C` is reported as 4.2 µM (Human coronavirus NL63; viral replication, inhibitor, qPCR; Caco-2; 48 h).
`Brc1ccc(-c2c[nH]c(-c3ccccn3)n2)cc1` has an EC50 of over 100 µM (Schistosoma mansoni; worm killing; female worms; no effect).
For `COc1ccc(-n2c(SCCF)nnc2[C@H](Cc2ccccc2)NC(=O)Cc2c(C)[nH]c3ccccc23)cc1`, the EC50 was 4.07 ± 0.87 µM (HIV-2; HIV-2-induced cytopathicity, MTT; MT-4, wild type).
`Nc1ccn(C[C@@H](CO)OCP(=O)(O)OCCCS(=O)(=O)CCCCCCCCCCCCCC2CCC2)c(=O)n1` has an EC50 of 0.01 ± 0.01 µM (human gammaherpesvirus 8; qPCR; BCBL-1; 7 days).
`CCOC(=O)[C@@H](C)NP(=O)(CO[C@H](CF)CN1CNC(N)=NC1=O)N[C@H](C)C(=O)OCC` gave an EC50 of over 100 µM (herpes simplex virus 2; cytopathic effect; HEL, G, TK+).
`CC(C)OC(=O)[C@H](Cc1ccccc1)NP(=O)(COCCn1cnc2c(=O)[nH]c(=O)[nH]c21)N[C@@H](Cc1ccccc1)C(=O)OC(C)C` has an EC50 of over 100 µM (herpes simplex virus 2; cytopathic effect; HEL, G).
The EC50 of `O=C(O)c1ccc(Cn2c(=O)n(Cc3ccc(C(=O)NCC4COC4)cc3)c(=O)c3ccccc32)cc1` is reported as over 50 µM (human respiratory syncytial virus; cytopathic effect; HEp-2, Long).
The EC50 of `C=CCSc1nnc([C@H](Cc2ccccc2)NC(=O)Cc2c(C)[nH]c3ccccc23)n1-c1ccc(OC)cc1` is reported as 3.94 ± 1.17 µM (HIV-2; HIV-2-induced cytopathicity, MTT; MT-4, wild type).
For `COc1ccc(-c2nc(-c3ccccc3OC)[nH]c2-c2ccc(OC)cc2)cc1`, the EC50 was over 100 µM (Schistosoma mansoni; worm killing; male worms).
The EC50 of `COc1ccc(-n2c(SCc3ccc(S(N)(=O)=O)cc3)nnc2[C@H](Cc2ccccc2)NC(=O)Cc2c(C)[nH]c3ccccc23)cc1` is reported as 3.42 ± 1.93 µM (HIV-2; HIV-2-induced cytopathicity, MTT; MT-4, wild type).
`CC1(CCCCCCCCCCCCOCCCOP(=O)(O)CO[C@H](CO)Cn2ccc(N)nc2=O)COC1` gave an EC50 of 0.03 ± 0.01 µM (human gammaherpesvirus 8; qPCR; BCBL-1; 7 days).
